Measured values pooled from the literature.
Parts stem from different laboratories: compare values within a part only.

Sample 1
Target: Interferon regulatory factor 7, full length, phosphomimetic (IRF7, Homo sapiens, UniProt Q92985, residues 1-503, S101K/S471D/S472D/S475D/S476D/S477D/S483D/S484D/S487D)
Method: protein-binding microarray
Molecule type: double-stranded DNA, one strand shown
Medium: in vitro
Concentration: 250 nM
Setting: 60-bp whole probe
Together with: salmon DNA 0.4 mg/ml
Baseline: random background probes
Direction: higher = stronger binding
Constant ends, left off below: GCCTAGCAC … GTCTTGATTCGCTTGACGCTGCTG
Residues (chain): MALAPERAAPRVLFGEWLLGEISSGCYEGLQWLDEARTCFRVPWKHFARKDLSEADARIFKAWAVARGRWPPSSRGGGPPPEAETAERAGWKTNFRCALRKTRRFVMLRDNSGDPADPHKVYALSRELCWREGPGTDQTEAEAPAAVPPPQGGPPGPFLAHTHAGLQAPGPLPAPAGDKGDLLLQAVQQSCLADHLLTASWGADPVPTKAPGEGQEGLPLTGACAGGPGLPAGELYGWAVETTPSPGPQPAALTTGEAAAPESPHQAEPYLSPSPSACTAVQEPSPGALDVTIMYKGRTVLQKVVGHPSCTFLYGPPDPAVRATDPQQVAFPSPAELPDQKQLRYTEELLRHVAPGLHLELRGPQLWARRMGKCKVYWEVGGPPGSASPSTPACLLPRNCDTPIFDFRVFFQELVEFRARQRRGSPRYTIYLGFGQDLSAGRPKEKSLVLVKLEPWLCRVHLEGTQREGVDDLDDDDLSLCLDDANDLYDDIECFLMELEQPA
Strand | log fluorescence [z-score]
TTAGATATCGGGTCTGGATTAGTGCTA | -0.222
TTAGGGCTCCTTATCCTTTAGTGCTAG | 0.229
TCACCAATCAGGACTCAGACTGTGCTA | -0.0381
TTAGGTTCCCGTTTCCTTTAGTGCTAG | 4.88
TCAAGTCTGAGATCCAGACTGTGCTAG | -0.418
TTAGGTCTCCTACTGCTATAGTGCTAG | 0.0658
GACGGTTCCCTTTTCCTGTCGTGCTAG | 3.69
GCCATTATGAGTCTTGAAGAGTGCTAG | -0.104
TTAGGTTTCATTTTCCTTTAGTGCTAG | 7.59
GACGGTTTCCTCCTCCTGACGTGCTAG | 1.19
TATGTTCCTTATTTAAGACCGTGCTAG | 2.49
GACGGGCTGGACTTTCGGGACGTGCTA | -0.796
TTAGGTATCGGGACTGGGTGAGTGCTA | 0.0217
TCATCATTGCATATAGAACTGTGCTAG | 0.052
TAAGGTTTCCTTATCCTTTAGTGCTAG | 3.07
TTAAGTATCGGTATCGGTTAGTGCTAG | 2.92
TCAAGCAAAAATGATTGACTGTGCTAG | 0.0644
TTAGGTTTCGGTATCGGTAAGTGCTAG | 10.8
TGAAAATTCTAATTAGAATTGTGCTAG | -0.261
CTAGATCTCAGTTTCGATTAGTGCTAG | 8.68
GACGATTTCGGATATCGAGACGTGCTA | 1.03
GACGATTTGGGGTATCGAGACGTGCTA | -0.316
GACGGTTTCGACACTGTGGACGTGCTA | 4.15

Sample 2
Target: Histone acetyltransferase KAT6A, both winged helices, GST fusion (KAT6A, Homo sapiens, UniProt Q92794, residues 1-181)
Method: protein binding microarray
Molecule type: double-stranded DNA, one strand shown
Medium: in vitro
Concentration: not given
Setting: 8-mer, flanks averaged, mean of 2 arrays, mostly near background
Baseline: not given
Direction: higher = stronger binding
Construct (chain): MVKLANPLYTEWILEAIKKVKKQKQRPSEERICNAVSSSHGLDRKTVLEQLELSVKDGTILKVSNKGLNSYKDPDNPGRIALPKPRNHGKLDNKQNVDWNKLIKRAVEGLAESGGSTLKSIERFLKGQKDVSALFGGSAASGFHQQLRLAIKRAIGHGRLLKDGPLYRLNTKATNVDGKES
Strand | E-score
AGTTAGAG | -0.216
CGTTGGAA | -0.0669
AGGGGCTA | -0.242
AATTTTGT | 0.0134
GAAAGTAA | -0.116
AAAGGCTT | -0.233
GTTGTAAA | -0.0122
CGACGGCG | 0.364
AGTAACAG | -0.0856
GCACCAGA | -0.132
AAGTAAGG | -0.181
GCTGACAA | 0.0407
AGTTGTAT | -0.0769
CTTTCCGC | 0.234
GATAGGCA | -0.21
ATTAAATC | 0.0223
AGGCGGCG | 0.308
ACAGCTTG | -0.0605
AATACAAC | 0.0367
CCTGGGCC | -0.137
AGCTTCAG | -0.201
AAAGTCTT | -0.0952
AGACGATA | -0.0438

Sample 3
Target: RNA binding protein fox-1 homolog 2, RRM domain, GST-SBP tag (RBFOX2, Homo sapiens, UniProt O43251-10, residues 100-194)
Method: RNA Bind-n-Seq
Molecule type: RNA
Medium: in vitro
Concentration: 365 nM
Setting: natural RNA segment, single round, ends assumed
Baseline: no-protein control
Direction: higher = stronger binding
Constant ends, left off below: GGGAGUUCUACAGUCCGACGAUC … UGGAAUUCUCGGGUGCCAA
Residues (chain): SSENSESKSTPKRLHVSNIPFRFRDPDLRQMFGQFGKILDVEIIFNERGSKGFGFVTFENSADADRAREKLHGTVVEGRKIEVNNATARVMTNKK
Strand | RBNS enrichment (R)
ACAUGAUGAAACCCCGUCUCUACUACAAAUACAAAAAUUAGCCGGGUGUGGUGGCACACGCCUGUAGUCCCAGCUACUGGGGAGGCUGAGGCAGCAUUGCUUGAACCCAG | 0.781
UCCAUGUAGGAGAGUGGCUCUCUCAGAUCUCUCAGGGCGUCUGGUUAUAGGGAAACAAGUGGAGCAGGGACGUGGCUUUAAUUGGAGCACUCGGCUGGGCUGCUUGGGGA | 0.441
CUAAAAAGCAUUUUGAAACAUACAGAAUGUUCUAUUGUCAUUGGGAAAUUUUUCUUUCUAACCCAGUGGAGGUUAGAAAGAAGUUAUAUUCUGGUAGCAAAUUAACUUUA | 0.555
GUAACUAAGGGAAUUUGUUUCAGUCUGGUUCUCCACUUACUAUACUGUGUUUUCAAGGUAAAUGGUCACUCUACAUUUAUAAACACAGGUCUGAUUGUACUUGAGGUAUA | 0.442
UGGGCCUAAGCCUUUCUGCAUUACACUUGAAGCCUUCAGUCAUUUCCUACCACUUAUUACAACAGUGAGGACUGGAUUCUUGAUGUCUUAAUUUCUCAUUUAUUUGUCUA | 0.499
GCCAACUUAAAGUUUUAGUUUGGUGUUUAUUGAAAAUUAACCAAACUUAAUACUAGGAGAAGACUGAAUCAUUAAUGAUGUCUCACAAAUUACUGUGUACCUAAGUGGUG | 0.316
CUGCUGGCUUGUUUAUCAGGGAUAUGGGAGCUGCGGGCAUGACAGCCACAUUCUCCCAGAAGAGACAGCCACAGAUAGACUGGAACUCUCUGGCAUGUGAGUGCAUAUGU | 16.7
AUGGUGAUUUUUUUACUUAAAAGCAGAAACAGAAGUUGACCUUCCUGACAUGUGUUUAAUAUUCCUCCUGCUUUUACAGAUUCUGACGUUUUCUUGAUAAUUGUAAGCUU | 0.272
UAGUCAUGUGACCUGAGCGUUUGCAUACAUACACUUUUUUUUAUUAUGAAGAAUGGGUACUUCUGGAUUCCAGGAAAAAUUCUUAUAACUAAAAUCAAUAUGUUUUAAAA | 0.493
CUUUUGUUACGAUUCCAUUAGCAAAAAGCACAAAGAGGAGGCGUGUGUGAAGUGGCCUGGGGUUGUUCCAUAAUGAAGACUCAAGAAGACUGUUUCCCCACCACAGAUGU | 0.623
AAUUAACCAAGGUAGAAUGACCUUGUAAUGUAACUGCUCUUGGGCAAUAUUCUCUGUACAUAUUAGCGACAACAGAUUGGAUUUUAUGUUGACAUUUGUUUGGUUAUAGU | 0.829
CCCGAAGAGACCCGGAACCAAGACCAUGGCAGGGCCUGCGUGGAAGCAGGUCCAGGCGUUUCUAGAACCCUAGGGUGCACCAUCACUGUCUUUUCAGUGCAGGCUGUAAC | 0.272

Sample 4
Target: Sal-like protein 4, full length isoform B (SALL4, Homo sapiens, UniProt Q9UJQ4-2, residues 1-616)
Method: universal PBM
Molecule type: double-stranded DNA, one strand shown
Medium: in vitro
Concentration: not given
Setting: 8-mer, flanks averaged, mean of replicates
Direction: higher = stronger binding
Target sequence (chain): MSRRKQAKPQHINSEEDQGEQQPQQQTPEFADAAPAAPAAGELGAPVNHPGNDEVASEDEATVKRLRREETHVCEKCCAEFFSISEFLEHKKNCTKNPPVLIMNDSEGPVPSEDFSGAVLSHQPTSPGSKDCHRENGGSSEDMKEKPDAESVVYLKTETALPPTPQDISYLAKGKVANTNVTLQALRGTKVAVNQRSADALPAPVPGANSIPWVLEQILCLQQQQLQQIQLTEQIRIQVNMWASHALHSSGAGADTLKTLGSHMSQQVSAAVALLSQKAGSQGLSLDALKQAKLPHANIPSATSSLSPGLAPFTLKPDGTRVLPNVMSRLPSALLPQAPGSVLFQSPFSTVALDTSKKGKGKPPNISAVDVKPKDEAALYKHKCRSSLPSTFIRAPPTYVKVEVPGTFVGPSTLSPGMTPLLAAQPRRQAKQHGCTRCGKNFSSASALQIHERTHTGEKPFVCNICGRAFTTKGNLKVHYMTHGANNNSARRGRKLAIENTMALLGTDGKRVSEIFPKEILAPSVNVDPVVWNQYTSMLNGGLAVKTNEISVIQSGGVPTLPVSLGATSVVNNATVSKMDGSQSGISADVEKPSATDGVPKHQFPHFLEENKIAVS
Strand | E-score
AACAAATT | 0.305
GCCACAGA | -0.155
GACCACGC | -0.25
GTTGAGTA | 0.179
GGCATTCA | -0.00268
ACGAACCG | -0.156
CTAAGCGC | -0.189
ACTTGAAA | 0.17
AACTGAAG | 0.0991
ACTCAAAG | 0.0292
CACAGGAC | -0.117
GTAGGGAC | -0.1
ACTTAGCA | -0.0493
AAACTAAT | 0.299
GCGTTAAA | -0.081
AAGAATTC | -0.107
AACCCCTG | -0.274
ACCCCCAG | -0.147
GTAGGGAA | 0.0109
AATTGCCG | -0.00667
ACCGAGAC | -0.205

Sample 5
Target: Ras GTPase-activating protein-binding protein 1, C-terminal RGG region (G3BP1, Homo sapiens, UniProt Q13283)
Sequence of UniProt Q13283 (whole entry, looked up): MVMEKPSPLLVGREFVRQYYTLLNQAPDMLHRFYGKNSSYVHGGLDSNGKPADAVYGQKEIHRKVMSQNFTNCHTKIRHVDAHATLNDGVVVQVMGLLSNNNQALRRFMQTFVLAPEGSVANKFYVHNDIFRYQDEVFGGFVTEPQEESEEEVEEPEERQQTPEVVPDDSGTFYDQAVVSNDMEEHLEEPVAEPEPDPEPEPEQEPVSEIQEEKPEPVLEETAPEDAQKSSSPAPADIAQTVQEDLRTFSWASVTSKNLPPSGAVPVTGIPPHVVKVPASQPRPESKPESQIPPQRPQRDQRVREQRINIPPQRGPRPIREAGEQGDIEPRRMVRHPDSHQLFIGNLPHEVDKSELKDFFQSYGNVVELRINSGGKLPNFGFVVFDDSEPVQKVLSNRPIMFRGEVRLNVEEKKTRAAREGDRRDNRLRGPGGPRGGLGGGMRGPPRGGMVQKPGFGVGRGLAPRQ
Method: RNA Bind-n-Seq
Molecule type: RNA
Medium: in vitro
Concentration: 1 µM
Setting: whole 134-nt RNA, ends assumed
Together with: 150 mM KCl
Baseline: input library
Direction: higher = stronger binding
Constant ends, left off below: GGGAGUUCUACAGUCCGACGAUC … UGGAAUUCUCGGGUGUCAAGG
Strand | log2 enrichment
UGAUGGGACAACACCCGAAAGGAUAGCACAAAUAACAGGACCUCCAGACCGAUGUCAACAUGCUGCAGAAAUUAUUACAGACCUUCUUCG | -0.372
CUCAAGUCCUGUGCUACACAUCGUAUGUACCGAAUCGGGCCGGGCCGGGCCGGGAAAGUAUUAUGUUACGCCGUUCGGAUCUGCACUUCC | -0.052
ACCAUGCAGGUGGGCAUCUUUGGGAAGUGGGGCAAGGGGGGGAUUGGGAGGGGGGUAACACUUUGGGAACAGGUGGUCCCAGGUCGUUUC | 2.27
AAGUCCUGUGCUACACAUCGUAUGUACCGAAUCAAAUUUAAACCCAAACCCCCAAAAAAGUAUUAUGUUACGCCGUUCGGAUCUGCACUU | -1.03
AAGUCCUGUGCUACACAUCGUAUGUACCGAAUCGGUUUUUGGUUUUUGGUUUUUGGGAAAGUAUUAUGUUACGCCGUUCGGAUCUGCACU | -1.81
CCUCUGGACGAGACCAGCCAGAUGAGCGACCUCCCGGUGAAGGUGAUCCACGUGGAGAGUGGGAAGAUCCUCACAGGCACAGAUGCCCCC | -0.863
CUCAAGUCCUGUGCUACACAUCGUAUGUACCGAAUCGGUUGGUUGGGGUUGGGGAAAGUAUUAUGUUACGCCGUUCGGAUCUGCACUUCC | -0.449
CACAGACAACACGCACCCACACAGACACAGAGGGAAGGGGUUGGGAUGGGGACAGGGUGCACAGCAGGGCGGGAUAGGACCCCAGCCCCU | -1.3
CACAGACAACACGCACCCACACAGACACAGAUGGAAGGGGUUGGGAUGGGGACAGGGUGCACAGCAGGGCGGGGUAGGACCCCAGCCCCU | -0.0485
CACAGACAACACGCACCCACACAGACACAGAGGGAAGGGGUUGGGAUGGGGACAGGGUUCACAGCAGGGCGGGGUAGGACCCCAGCCCCU | -0.605
UCCUGUGCUACACAUCGUAUGUACCGAAUCGGAAAAAAGGGAAAAAAGGAAAAAAGGGGAAAGUAUUAUGUUACGCCGUUCGGAUCUGCA | -1.57
CCUGUGCUACACAUCGUAUGUACCGAAUCGGGGUUUGGGGUUUUUGGGGUUUUUUUGGGGAAAGUAUUAUGUUACGCCGUUCGGAUCUGC | 0.943
AAGUCCUGUGCUACACAUCGUAUGUACCGAAUCGGGGAAAGGGGAAAGGAAAGGGGAAAGUAUUAUGUUACGCCGUUCGGAUCUGCACUU | 0.115
ACCAUGCAGGUGGGCAUCUUUGGGAAGUGGGGCAAGGGGGGGAUAGGGAGGGGGGUAAAAAUUUGGGAACAGGUGGUCCCAGGUCGUUUC | -1.9

A few entries again (sample 1):
Strand | log fluorescence [z-score]
GACGATTTGGGGTATCGAGACGTGCTA | -0.316
TTAGGTTCCCGTTTCCTTTAGTGCTAG | 4.88
TCACCAATCAGGACTCAGACTGTGCTA | -0.0381
GACGGTTTCCTCCTCCTGACGTGCTAG | 1.19
GACGGGCTGGACTTTCGGGACGTGCTA | -0.796
GACGATTTCGGATATCGAGACGTGCTA | 1.03
GACGGTTCCCTTTTCCTGTCGTGCTAG | 3.69
TTAGGGCTCCTTATCCTTTAGTGCTAG | 0.229
TTAGATATCGGGTCTGGATTAGTGCTA | -0.222
